Measured values gathered from unrelated publications.
Each line is one published result; not all experiments were run side by side. Numbers after ± are the reported error.

C=C(C)[C@H]1Cc2c(ccc3c2O[C@@H]2COc4cc(OC)c(OC)cc4[C@@H]2C3=O)O1
inotropic effect (human iPSC-derived cardiomyocytes; calcium flux; 10 µM, 30 min): negative

Oc1ccc(Cl)cc1Sc1cc(Cl)ccc1O
OCR (HepG2; Seahorse respirometry; concentration not given, 1 h, dosed at MMP IC50, together with: 1 µM FCCP; reference: basal): 230.1 ± 2.17%

CC[C@H](C)[C@H](NC(=O)[C@H](CCCCN)NC(=O)[C@@H](NC(=O)[C@H](CCC(N)=O)NC(=O)[C@H](CCCNC(=N)N)NC(=O)[C@@H](N)CC(=O)O)[C@@H](C)CC)C(=O)N[C@@H](Cc1c[nH]c2ccccc12)C(=O)N[C@@H](Cc1ccccc1)C(=O)N[C@@H](CCC(N)=O)C(=O)N[C@@H](CC(N)=O)C(=O)N[C@@H](CCCNC(=N)N)C(=O)N[C@@H](CCCNC(=N)N)C(=O)N[C@@H](CCSC)C(=O)N[C@@H](CCCCN)C(=O)N[C@@H](Cc1c[nH]c2ccccc12)C(=O)N[C@@H](CCCCN)C(=O)N[C@@H](CCCCN)C(=O)N[C@H](C(=O)N[C@@H](C)C(=O)N[C@@H](CC(C)C)C(=O)N[C@@H](CC(=O)O)C(=O)N[C@@H](Cc1c[nH]c2ccccc12)C(=O)N[C@@H](CO)C(=O)N[C@@H](Cc1c[nH]c2ccccc12)C(=O)N[C@@H](CC(C)C)C(=O)N[C@@H](CCC(N)=O)C(=O)N[C@H](C(=O)N[C@@H](CCC(=O)O)C(=O)O)[C@@H](C)O)[C@@H](C)O
NEMO-IKK-2 interaction (rheumatoid arthritis synovial fibroblasts; inhibitor, proximity ligation; concentration not given, 30 min, together with: IL-1β 1 ng/mL): inhibited

O=C1C[C@@H](c2ccc(O)cc2)Oc2cc(O)cc(O)c21
inhibition of latency reversal (J-Lat 10.6 cells; measured: GFP-positive cells; 10 µM, 21 days, spontaneous, after wash-out; reference: DMSO 0.1%): ≤ 31.5%

CC[C@H](C)[C@H](NC(=O)[C@@H](NC(=O)[C@@H](N)C(C)C)C(C)C)C(=O)N[C@@H](CC(C)C)C(N)=O
viability (PC-12; Aβ42-induced neurotoxicity, inhibitor, MTT; concentration not given, 6 h, 37 °C, peptide to Aβ42 1:2, together with: Aβ42 2 µM; reference: untreated cells): 71.7%

CC(C)=CCC[C@]1(C)C=Cc2c(O)c3c(c(CC=C(C)C)c2O1)O[C@]12C(=C[C@@H]4C[C@H]1C(C)(C)O[C@@]2(C/C=C(/C)C(=O)N[C@@H](CS)C(=O)N[C@@H](Cc1ccc(O)cc1)C(=O)NCC(=O)N[C@@H](CCCNC(=N)N)C(=O)N[C@@H](CCCCN)C(=O)N[C@@H](CCCCN)C(=O)N[C@@H](CCCNC(=N)N)C(=O)N[C@@H](CCCNC(=N)N)C(=O)N[C@@H](CCC(N)=O)C(=O)N[C@@H](CCCNC(=N)N)C(=O)N[C@@H](CCCNC(=N)N)C(=O)N[C@@H](CCCNC(=N)N)C(=O)O)C4=O)C3=O
apoptotic cells (EJ; annexin V/PI flow cytometry; 1.0 µM, 24 h, together with: 5 mM NAC pretreatment 2 h): 9 ± 1.3%

COC(=O)Nc1cccc(OC(=O)Nc2cccc(C)c2)c1
OCR (HepG2; Seahorse respirometry; concentration not given, 1 h, dosed at MMP IC50, together with: 1 µM FCCP; reference: basal): 174 ± 1.01%

O=c1cc(-c2ccc(O)cc2)oc2cc(O)cc(O)c12
inhibition of latency reversal (J-Lat 10.6 cells; measured: GFP-positive cells; 10 µM, 21 days, spontaneous, after wash-out; reference: DMSO 0.1%): 86.7 ± 11.7%

CC1(C)C(C=C(Cl)Cl)C1C(=O)OCc1cccc(Oc2ccccc2)c1 (stereo not drawn)
lowest effective concentration (human iPSC-derived cardiomyocytes; beat peak frequency; 30 min): 3 µM

C=CCc1cccc(/C=N/NC(=O)CN2CCN(Cc3ccccc3)CC2)c1O
apoptotic cells increase (GL-1 cells; annexin V/PI; 20 µM, 24 h; reference: vehicle): ~10%

Oc1cc(Cl)c(Cl)c(Cl)c1
OCR (HepG2; Seahorse respirometry; concentration not given, 1 h, dosed at MMP IC50, together with: 1 µM FCCP; reference: basal): 202.5 ± 1.47%

C=C1C(=O)O[C@H]2[C@H]1CCC(C)=C1CC[C@@](C)(O)[C@@H]12
CC50 (M9-ENL1 leukaemia cells; annexin V/7-AAD flow cytometry; 24 h, 5% human plasma): 14.6 µM

R(−)-N-allylnorapomorphine hydrobromide
efficacy (HEK293 expressing MOR; morphine-induced cAMP overshoot, inhibitor; up to 1 µM, together with: NKH477 25 nM; reference: morphine control): 65%

CC(C)Oc1cccc(CC(=O)N2CCC[C@@](CC[N+]34CCC(c5ccccc5)(CC3)CC4)(c3ccc(Cl)c(Cl)c3)C2)c1.[Cl-]
ERK activity (HEK293 expressing NK1R; cytosolic ERK, antagonist, FRET biosensor; concentration not given, 30 min, together with: substance P): inhibited

CCC[C@H](N)C(=O)N[C@H](C(=O)N[C@H](C(=O)N[C@@H](C)C(N)=O)[C@@H](C)CC)C(C)C
viability (PC-12; Aβ42-induced neurotoxicity, inhibitor, MTT; concentration not given, 6 h, 37 °C, peptide to Aβ42 1:2, together with: Aβ42 2 µM; reference: untreated cells): 86.1%

C=CCN1CC[C@]23c4c5ccc(O)c4O[C@@H]2/C(=N/N=C2\CC[C@@]4(O)C6Cc7ccc(O)c8c7[C@@]4(CCN6CC=C)[C@@H]2O8)CC[C@@]3(O)C1C5.Cl.Cl
efficacy (HEK293 expressing MOR; morphine-induced cAMP overshoot, HTRF cAMP; 1 µM, together with: NKH 477 25 nM; reference: morphine control): 95%

CC[C@H](C)[C@H](NC(=O)[C@@H](NC(=O)CN)C(C)C)C(=O)N[C@@H](C)C(N)=O
viability (PC-12; Aβ42-induced neurotoxicity, inhibitor, MTT; concentration not given, 6 h, 37 °C, peptide to Aβ42 1:2, together with: Aβ42 2 µM; reference: untreated cells): 94.3%

CC(C)c1ccc2c(c1)CC[C@H]1[C@](C)(CN)CCC[C@]21C
IC50 (MEL-JUSO; cell growth or viability, MTS; 72 h): 3.07 µM

COP(=O)(OC)OCc1ccc(C=O)o1
inhibition (human sickle red blood cells; sickling; 2 mM, 2 h, 37 °C, hematocrit 20%, 4% oxygen): 8.4 ± 5.9%

[Met(O)35]Aβ42
apoptotic cells (rat primary cortical neurons; TUNEL; 10 µM, 48 h): 13 ± 0.7%

[Met(O)35]Aβ42
viability decrease (rat primary cortical neurons; MTT; 10 µM, 48 h; reference: medium control): 31 ± 1%

N=C(N)NCCC[C@H](NC(=O)CNC(=O)[C@@H](N)Cc1ccc(O)cc1)C(=O)N[C@@H](CCCCN)C(=O)N[C@@H](CCCCN)C(=O)N[C@@H](CCCNC(=N)N)C(=O)N[C@@H](CCCNC(=N)N)C(=O)N[C@@H](CCC(N)=O)C(=O)N[C@@H](CCCNC(=N)N)C(=O)N[C@@H](CCCNC(=N)N)C(=O)N[C@@H](CCCNC(=N)N)C(=O)N[C@@H](CCCNC(=N)N)C(=O)N[C@@H](CC(N)=O)C(=O)N[C@@H](CCC(N)=O)C(=O)N[C@@H](CCCCN)C(=O)N[C@@H](Cc1ccccc1)C(=O)N[C@@H](CCCCN)C(=O)N[C@@H](CS)C(=O)NCC(=O)N[C@@H](CCC(=O)O)C(=O)O
BRD4-JMJD6 interaction (MCF7 transfected Flag-JMJD6 His-BRD4; immunoprecipitation; 10 µM, 12 h): inhibited

C[C@H]1C[C@H]2[C@@H]3CCC4=CC(=O)C=C[C@]4(C)[C@@]3(Cl)[C@@H](O)C[C@]2(C)[C@@]1(O)C(=O)CO
inhibition (A549 EGFR reporter cells; EGFR-induced granule formation; 10 µM, together with: 500 nM EGF; negative means activation): -116%

Nc1ccc(O)cc1
maximal OCR (HepG2; MMP IC50, 1 h, together with: FCCP 1 µM; reference: basal OCR): 226 ± 3.21%

COc1c(Nc2cc(C)[nH]n2)nc(Sc2ccc(S(=O)(=O)Cc3cccc([N+](=O)[O-])c3F)cc2F)nc1N1CCOCC1
single-condensate cells (RPE1, inducible TRIM37 knockout; measured: centrobin condensates; concentration not given): 94%

CC(Oc1cc(C(F)(F)F)cc(C(F)(F)F)c1)C1CC(=O)CC(=O)C1 (stereo not drawn)
neuroprotection (rat primary cortical neurons; viability; up to 100 µM, together with: MG132 100 nM): positive

CC1(C)[C@H](C(=O)O[C@H](C#N)c2cccc(Oc3ccccc3)c2)[C@@H]1C=C(Br)Br
lowest effective concentration (human iPSC-derived cardiomyocytes; beat peak frequency; 30 min): 3 µM

PIAIIIA
mobile fraction CN-YFP (rat hippocampal neurons, AKAP150 RNAi, AKAP79 expression; FRAP; peptide, dendritic spines; dose not given, 32 °C): 81.3 ± 0.6%

CN(C)CCCNC(=O)/C=C/c1ccc2c(c1)OCO2
EBV-EA positive cells (Raji; TPA-induced EBV-EA expression, inhibitor; 100-fold molar ratio to TPA, 48 h, together with: TPA 32 pmol/mL; reference: TPA control): 84.3 ± 2.6%

C=C1C(=O)O[C@H]2[C@H]1CC/C(C)=C/CC[C@@]1(C)O[C@@H]21
Emax (HEK293 expressing MOR; morphine-induced cAMP overshoot, HTRF cAMP; 1 µM, together with: NKH 477 25 nM; reference: morphine control): 191%

Repeated from above:
C=C1C(=O)O[C@H]2[C@H]1CCC(C)=C1CC[C@@](C)(O)[C@@H]12
CC50 (M9-ENL1 leukaemia cells; annexin V/7-AAD flow cytometry; 24 h, 5% human plasma): 14.6 µM

R(−)-N-allylnorapomorphine hydrobromide
efficacy (HEK293 expressing MOR; morphine-induced cAMP overshoot, inhibitor; up to 1 µM, together with: NKH477 25 nM; reference: morphine control): 65%

CC(C)Oc1cccc(CC(=O)N2CCC[C@@](CC[N+]34CCC(c5ccccc5)(CC3)CC4)(c3ccc(Cl)c(Cl)c3)C2)c1.[Cl-]
ERK activity (HEK293 expressing NK1R; cytosolic ERK, antagonist, FRET biosensor; concentration not given, 30 min, together with: substance P): inhibited
